Results from different studies.
A part holds a random share of what one study measured. Positions count from the first letter of the parent shown.

Study 1
Target: Interferon regulatory factor 7, full length, phosphomimetic (IRF7, Homo sapiens, UniProt Q92985, residues 1-503, S471D/S472D/S475D/S476D/S477D/S483D/S484D/S487D)
Sequence of UniProt Q92985 (whole entry, unmodified, looked up): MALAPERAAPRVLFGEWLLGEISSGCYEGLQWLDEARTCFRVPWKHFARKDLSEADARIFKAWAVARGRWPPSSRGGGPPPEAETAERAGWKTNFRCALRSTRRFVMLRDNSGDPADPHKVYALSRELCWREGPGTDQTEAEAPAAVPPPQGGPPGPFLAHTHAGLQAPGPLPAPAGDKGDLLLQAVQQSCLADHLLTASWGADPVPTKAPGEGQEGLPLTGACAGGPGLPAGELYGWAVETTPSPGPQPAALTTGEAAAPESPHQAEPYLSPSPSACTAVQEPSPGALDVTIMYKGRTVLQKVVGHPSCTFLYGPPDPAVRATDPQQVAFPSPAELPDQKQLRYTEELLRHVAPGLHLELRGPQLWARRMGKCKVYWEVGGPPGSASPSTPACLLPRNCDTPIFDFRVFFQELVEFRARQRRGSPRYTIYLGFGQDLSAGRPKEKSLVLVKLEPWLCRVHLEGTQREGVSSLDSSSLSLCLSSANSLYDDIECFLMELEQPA
Method: protein-binding microarray
Form: double-stranded DNA, one strand shown
Sample: in vitro
Concentration: 2200 nM top
Setting: 60-bp whole probe
Together with: salmon DNA 0.4 mg/ml
Reference: random background probes
Direction: higher = stronger binding
Shared flanks, not repeated: GCCTAGCAC … GTCTTGATTCGCTTGACGCTGCTG
| Oligonucleotide | fitted relative affinity |
| --- | --- |
| GACGGTCTCGGACTGGTGACGTGCTAG | -0.329 z-score |
| GACGGTCTCCATCTCCTGACGTGCTAG | 0.994 z-score |
| TTAGGTTTCGACACTGGATTAGTGCTA | 2.27 z-score |
| TTAGTTTTCCTTTCCCTTTAGTGCTAG | 7.76 z-score |
| AGCCTGGCCAAGCTCACAGCGTGCTAG | -1.08 z-score |
| TCTTTTCTGTTGTCTGTGTTTGTGCTA | 3.93 z-score |
| TTAGATTTCGGGTTTAGATTAGTGCTA | 3.74 z-score |
| GACGTTTTCGGTATCGGGACGTGCTAG | 7.31 z-score |
| TTAGGTATCGGGTTTCCGTTAGTGCTA | 1.49 z-score |
| TCATTTTTCTAACCCATACTGTGCTAG | 2 z-score |
| TCATTTTCCTACATCAGACTGTGCTAG | 3.01 z-score |
| GATGGTTTCCTTTCCCTGACGTGCTAG | 4.35 z-score |
| GACGGTTTCGGTCTCGGAACGTGCTAG | 6.57 z-score |
| TCAATTTTCTGAATGTCACTGTGCTAG | 2.66 z-score |
| TCATGTTTCCTCTTTCAACTGTGCTAG | 3.35 z-score |
| CAAACAGAGACCCGGCAAGTGTGCTAG | -0.32 z-score |
| ATTGCTTCCTCTTTACTGCTGTGCTAG | 3.08 z-score |
| ATTTCTTTCTAATTCAAAGTGTGCTAG | 2.41 z-score |
| TTAAGTTTCCTTATCCTTTAGTGCTAG | 2.73 z-score |
| GACGATATCAGCATCGAGACGTGCTAG | 0.359 z-score |
| TCCTCTGTCATTTTCTCTTAGTGCTAG | 2.69 z-score |
| GACGGACTGTGACTGGGGACGTGCTAG | -0.588 z-score |

Study 2
Target: ABI1, truncated, D143A, DHFR fusion (Arabidopsis thaliana)
Method: DHFR PCA, deep sequencing
Sample: yeast
Setting: methotrexate growth selection, single substitutions
Together with: (+)-ABA 1.4 µM
Reference: wild-type fitted maximum
Direction: higher = stronger binding
Starting sequence: PYL1, truncated, DHFR fusion (Arabidopsis thaliana); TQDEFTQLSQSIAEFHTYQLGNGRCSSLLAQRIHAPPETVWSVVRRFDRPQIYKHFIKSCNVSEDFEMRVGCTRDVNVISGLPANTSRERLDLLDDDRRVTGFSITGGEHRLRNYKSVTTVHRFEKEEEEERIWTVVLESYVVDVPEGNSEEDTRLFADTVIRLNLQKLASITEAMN; partner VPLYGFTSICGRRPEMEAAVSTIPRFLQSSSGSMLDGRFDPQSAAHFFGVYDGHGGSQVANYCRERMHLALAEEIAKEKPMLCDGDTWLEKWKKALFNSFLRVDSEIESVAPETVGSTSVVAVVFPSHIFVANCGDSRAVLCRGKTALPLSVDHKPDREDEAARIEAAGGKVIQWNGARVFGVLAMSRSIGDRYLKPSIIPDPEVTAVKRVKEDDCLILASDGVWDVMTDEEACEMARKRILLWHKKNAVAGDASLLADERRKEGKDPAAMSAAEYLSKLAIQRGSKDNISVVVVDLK
| Change | relative binding score [%] |
| --- | --- |
| E127A | 62.7 |
| E14V | 14.6 |
| L164Y | 33.9 |
| L28Y | -0.764 |
| G21V | 58.1 |
| F103T | 2.77 |
| C60W | 2.4 |
| S117H | -9.44 |
| R69A | 51.1 |
| E139H | 12.3 |
| R98Y | 17.8 |
| D159H | -14.4 |
| E109C | 24 |

Study 3
Target: UBE2N UBC core domain (UniProt P61088)
Method: yeast two-hybrid
Sample: yeast
Setting: mostly zero background
Reference: not given
Direction: higher = stronger interaction
B1: VPS41 RING domain (UniProt P49754); chain KGVLVDEENICESCLSPILPSDAAKPFSVVVFHCRHMFHKECLPMPSMNSAAQFCNICSAKNRGPGSAI
B2: TRIM43 RING domain (UniProt Q96BQ3); chain FSHAFQKELTCVICLNYLVDPVTICCGHSFCRPCLCLSWEEAQSPANCPACREPSPKMDFKT
B3: MKRN1 RING domain (UniProt Q9UHC7); chain FAVQRSKDMVCGICMEVVYEKANPSERRFGILSNCNHTYCLKCIRKWRSAKQFESKIIKSCPECRITSNFVIPSE
B4: NEURL1 RING domain (UniProt O76050); chain VTPGLGQWSDECTICYEHAVDTVIYTCGHMCLCYACGLRLKKALHACCPICRRPIKDIIKT
B5: TRIM4 RING domain (UniProt Q9C037); chain EAEDIQEELTCPICLDYFQDPVSIECGHNFCRGCLHRNWAPGGGPFPCPECRHPSAPAALRP
B6: TRIM5 RING domain (UniProt Q9C035); chain LREVKLSPEGQKVDHCARHGEKLLLFCQEDGKVICWLCERSQEHRGHHTFLTEEVAREYQVKL
B7: DTX4 RING domain (UniProt Q9Y2E6); chain QKVRHPPDEDCTICMERLTAPSGYKGPQPTVKPDLVGKLSRCGHVYHIYCLVAMYNNGNKDGSLQCPTCKTIYGVKTGTQ
B8: TRIML1 RING domain (UniProt Q8N9V2); chain LMENLREELTCFICLDYFSSPVTTECGHSFCLVCLLRSWEEHNTPLSCPECWRTLEGPHFQS
B9: TRIM40 RING domain (UniProt Q6P9F5); chain LQKDNQEEGVCPICQESLKEAVSTNCGHLFCRVCLTQHVEKASASGVFCCPLCRKPCSEEVLG
B10: TRIM5 RING domain (UniProt Q9C035); chain ILVNVKEEVTCPICLELLTQPLSLDCGHSFCQACLTANHKKSMLDKGESSCPVCRISYQPENIRP
Construct (chain): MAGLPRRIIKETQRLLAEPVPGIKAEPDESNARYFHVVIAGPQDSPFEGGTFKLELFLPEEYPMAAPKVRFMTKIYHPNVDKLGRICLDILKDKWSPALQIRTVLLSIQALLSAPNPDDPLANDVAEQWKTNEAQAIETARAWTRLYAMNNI
| Sequence | lacZ reporter activity |
| --- | --- |
| B1 (VPS41 RING domain) | 0 |
| B2 (TRIM43 RING domain) | 0 |
| MPIRALCTICSDFFDHSRDVAAIHCGHTFHLQCLIQWFETAPSRTCPQCRIQVGKRTIIN (TRAIP RING domain (UniProt Q9BWF2)) | 0 |
| B3 (MKRN1 RING domain) | 0 |
| B4 (NEURL1 RING domain) | 7560 |
| QVDKAVFHMQSVKCLKCQEQKRAVLPCQHAALCELCAEGSECPICQPGRAHTLQS (UNK RING domain (UniProt Q9C0B0)) | 0 |
| B5 (TRIM4 RING domain) | 0 |
| DHGAVGQEMCCPICCSEYVKGEVATELPCHHYFHKPCVSIWLQKSGTCPVCRCMFPPPL (PJA1 RING domain (UniProt Q8NG27)) | 0 |
| B6 (TRIM5 RING domain) | 0 |
| VEPSEENSKDCVVCQNGTVNWVLLPCRHTCLCDGCVKYFQQCPMCRQFVQESFALC (CGRRF1 RING domain (UniProt Q99675)) | 0 |
| B7 (DTX4 RING domain) | 0 |
| FQGDVDEDLICPICSGVLEEPVQAPHCEHAFCNACITQWFSQQQTCPVDRSVVTVAHLRP (RNF41 RING domain (UniProt Q9H4P4)) | 0 |
| B8 (TRIML1 RING domain) | 0 |
| B9 (TRIM40 RING domain) | 0 |
| B10 (TRIM5 RING domain) | 0 |

Study 4
Target: Prothrombin, mature alpha-thrombin (F2, Homo sapiens, UniProt P00734)
Method: aptamer microarray, sandwich
Form: DNA with 2'F-ANA
Sample: in vitro
Concentration: 200 nM
Setting: whole 15-mer aptamer, many near background
Together with: Cy3 exosite-II aptamer, 400 nM
Direction: higher = stronger binding
Oligonucleotide: GGTTGGTGTGGTTGG
| Modification | mean fluorescence intensity [a.u.] |
| --- | --- |
| 2'F-ANA at 4 8 9 10 14 | 63.4 |
| 2'F-ANA at 2 3 4 6 9 10 12 13 14 15 | 131 |
| 2'F-ANA at 1 4 8 10 12 13 15 | 65.7 |
| 2'F-ANA at 2 7 11 12 13 15 | 566 |
| 2'F-ANA at 1 2 4 6 7 13 14 15 | 49.9 |
| 2'F-ANA at 1 3 4 5 12 14 | 70 |
| 2'F-ANA at 2 3 4 5 10 12 15 | 64.8 |
| 2'F-ANA at 4 7 9 11 14 | 86.3 |
| 2'F-ANA at 3 4 5 8 11 14 | 54.1 |
| 2'F-ANA at 1 3 4 8 10 11 13 14 15 | 66 |
| 2'F-ANA at 1 3 4 5 7 8 10 12 14 15 | 47.7 |
| 2'F-ANA at 2 3 4 6 8 10 12 15 | 246 |
| 2'F-ANA at 1 4 6 8 10 11 12 13 14 | 44.7 |
| 2'F-ANA at 1 3 6 8 11 13 | 272 |
| 2'F-ANA at 1 2 4 5 6 7 10 11 | 51.9 |
| 2'F-ANA at 2 3 5 9 12 15 | 195 |
| 2'F-ANA at 7 8 11 12 13 14 15 | 241 |
| 2'F-ANA at 1 2 9 10 | 106 |
| 2'F-ANA at 1 2 3 4 6 14 | 60.8 |
| 2'F-ANA at 2 4 8 10 11 12 | 124 |
| 2'F-ANA at 2 6 11 12 | 467 |
| 2'F-ANA at 1 3 4 5 6 7 9 11 12 13 14 15 | 50.9 |

Study 5
Target: CCND3, cyclin fold, Cln2 fusion (human)
Method: yeast growth competition, sequencing
Sample: yeast
Setting: weak parent motif
Reference: not given
Direction: higher = stronger binding
Starting sequence: PKMYT1 docking peptide (human); SFEPRNLLSLFED
| Change | normalised enrichment score |
| --- | --- |
| F11Y | 0.097 |
| F11D | 0.0909 |
| D13S | 0.132 |
| F2E | 0.0391 |
| E12G | 0.0395 |
| S1K | 0.00642 |
| L10R | 0.154 |
| E12S | 0.0573 |
| D13K | 0.0772 |
| D13A | 0.115 |
| S1E | 0.0116 |
| R5A L7A | -0.044 |
| L8S | 0.0752 |
| L10G | 0.135 |
| L10Y | 0.083 |
| F2M | 0.103 |
| S9G | 0.0567 |
| S9E | 0.0949 |
| E3G | 0.0321 |
| R5G | 0.154 |
| E12T | 0.0339 |
| L7Q | 0.0288 |
| F11C | 0.0397 |
| F2Q | 0.0633 |
| N6Y | 0.075 |

For quick reference, copied from above (study 2):
| Change | relative binding score [%] |
| --- | --- |
| R69A | 51.1 |
| E139H | 12.3 |
| R98Y | 17.8 |
| D159H | -14.4 |
| E109C | 24 |
